Published values from different studies.
Each numbered part is a random draw from the data of one study; scales do not carry over between parts. Values joined by “and” are separate records of one study, mostly repeats; a detail may differ.
Chain of UniProt P24723 (whole entry, looked up): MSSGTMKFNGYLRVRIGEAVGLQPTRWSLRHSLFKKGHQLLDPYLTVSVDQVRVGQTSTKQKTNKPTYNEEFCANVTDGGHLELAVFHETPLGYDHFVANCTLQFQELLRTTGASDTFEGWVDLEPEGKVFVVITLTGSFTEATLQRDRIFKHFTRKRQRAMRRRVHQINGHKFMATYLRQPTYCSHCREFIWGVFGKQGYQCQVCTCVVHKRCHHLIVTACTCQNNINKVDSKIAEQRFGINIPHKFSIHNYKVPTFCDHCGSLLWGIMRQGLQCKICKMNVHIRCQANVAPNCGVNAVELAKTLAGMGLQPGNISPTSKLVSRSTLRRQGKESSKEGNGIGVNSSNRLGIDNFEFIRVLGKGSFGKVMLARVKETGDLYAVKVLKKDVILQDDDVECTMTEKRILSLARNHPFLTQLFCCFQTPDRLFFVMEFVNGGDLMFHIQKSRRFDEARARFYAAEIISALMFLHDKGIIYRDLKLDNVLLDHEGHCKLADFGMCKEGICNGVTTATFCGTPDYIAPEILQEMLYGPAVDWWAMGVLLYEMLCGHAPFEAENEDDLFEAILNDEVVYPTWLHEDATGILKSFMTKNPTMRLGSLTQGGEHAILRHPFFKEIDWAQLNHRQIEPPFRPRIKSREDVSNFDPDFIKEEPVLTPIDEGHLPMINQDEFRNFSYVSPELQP
Chain of UniProt O00506 (whole entry, looked up): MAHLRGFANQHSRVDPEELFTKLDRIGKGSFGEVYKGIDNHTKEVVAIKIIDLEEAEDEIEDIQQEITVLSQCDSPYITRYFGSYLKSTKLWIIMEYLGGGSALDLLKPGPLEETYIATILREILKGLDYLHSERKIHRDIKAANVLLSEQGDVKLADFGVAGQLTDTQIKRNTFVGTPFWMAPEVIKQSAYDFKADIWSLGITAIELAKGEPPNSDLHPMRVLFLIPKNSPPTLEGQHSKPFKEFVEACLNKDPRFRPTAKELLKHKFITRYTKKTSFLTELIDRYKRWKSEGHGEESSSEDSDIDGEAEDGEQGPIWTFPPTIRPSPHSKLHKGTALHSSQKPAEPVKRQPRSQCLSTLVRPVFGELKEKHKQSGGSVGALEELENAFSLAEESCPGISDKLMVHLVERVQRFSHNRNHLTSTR
Chain of UniProt O96013 (whole entry, looked up): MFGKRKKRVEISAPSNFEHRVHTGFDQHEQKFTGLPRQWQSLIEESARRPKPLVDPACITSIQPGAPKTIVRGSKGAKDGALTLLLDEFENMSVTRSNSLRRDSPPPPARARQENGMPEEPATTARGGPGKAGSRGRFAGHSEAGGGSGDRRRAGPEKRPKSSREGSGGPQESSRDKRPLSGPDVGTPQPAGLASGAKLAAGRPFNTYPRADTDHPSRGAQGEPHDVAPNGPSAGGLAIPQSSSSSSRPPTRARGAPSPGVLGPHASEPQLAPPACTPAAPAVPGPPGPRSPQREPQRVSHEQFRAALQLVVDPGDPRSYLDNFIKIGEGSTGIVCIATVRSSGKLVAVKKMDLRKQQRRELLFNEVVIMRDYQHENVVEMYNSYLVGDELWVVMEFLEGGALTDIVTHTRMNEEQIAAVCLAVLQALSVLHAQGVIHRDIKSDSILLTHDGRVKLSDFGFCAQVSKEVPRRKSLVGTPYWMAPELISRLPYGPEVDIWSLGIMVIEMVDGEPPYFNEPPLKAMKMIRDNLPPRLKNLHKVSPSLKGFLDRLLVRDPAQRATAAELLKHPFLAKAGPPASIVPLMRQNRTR
Chain of UniProt Q6PHR2 (whole entry, looked up): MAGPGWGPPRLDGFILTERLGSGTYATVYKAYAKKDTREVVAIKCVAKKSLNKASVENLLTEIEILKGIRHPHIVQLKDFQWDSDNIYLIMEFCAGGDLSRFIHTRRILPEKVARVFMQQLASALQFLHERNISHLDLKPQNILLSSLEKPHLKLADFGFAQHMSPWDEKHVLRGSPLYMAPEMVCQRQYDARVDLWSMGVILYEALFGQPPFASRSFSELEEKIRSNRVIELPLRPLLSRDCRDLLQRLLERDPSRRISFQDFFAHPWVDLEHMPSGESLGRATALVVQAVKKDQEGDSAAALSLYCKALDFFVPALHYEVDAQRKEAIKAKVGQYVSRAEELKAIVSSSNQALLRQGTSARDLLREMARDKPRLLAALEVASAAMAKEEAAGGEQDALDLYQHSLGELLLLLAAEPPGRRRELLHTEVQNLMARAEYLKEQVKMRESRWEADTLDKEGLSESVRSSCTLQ
Chain of UniProt Q04771 (whole entry, looked up): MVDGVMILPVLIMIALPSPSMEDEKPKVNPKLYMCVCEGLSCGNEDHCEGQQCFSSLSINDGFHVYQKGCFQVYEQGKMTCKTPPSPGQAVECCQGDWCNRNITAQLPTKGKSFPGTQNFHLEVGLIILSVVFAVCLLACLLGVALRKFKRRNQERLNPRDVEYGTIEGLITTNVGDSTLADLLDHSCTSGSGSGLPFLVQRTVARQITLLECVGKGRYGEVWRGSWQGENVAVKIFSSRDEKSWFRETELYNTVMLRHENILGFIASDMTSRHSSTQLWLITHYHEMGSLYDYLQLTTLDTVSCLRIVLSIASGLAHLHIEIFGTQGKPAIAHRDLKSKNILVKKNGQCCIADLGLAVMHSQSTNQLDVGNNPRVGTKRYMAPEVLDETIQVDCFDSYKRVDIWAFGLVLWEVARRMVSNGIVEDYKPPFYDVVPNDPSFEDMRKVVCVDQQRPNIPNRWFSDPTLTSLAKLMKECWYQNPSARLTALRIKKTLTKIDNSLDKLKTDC
Chain of UniProt Q96PN8 (whole entry, looked up): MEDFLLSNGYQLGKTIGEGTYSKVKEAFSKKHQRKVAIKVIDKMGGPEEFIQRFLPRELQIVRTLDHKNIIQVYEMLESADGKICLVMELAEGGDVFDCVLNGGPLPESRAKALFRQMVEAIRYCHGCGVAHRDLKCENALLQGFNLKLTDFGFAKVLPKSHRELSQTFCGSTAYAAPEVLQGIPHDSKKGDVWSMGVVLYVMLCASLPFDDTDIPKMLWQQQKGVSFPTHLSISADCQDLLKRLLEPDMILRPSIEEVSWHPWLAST

Sample 1
Target: BDNF/NT-3 growth factors receptor (NTRK2, Homo sapiens, UniProt Q16620)
Chain of UniProt Q16620 (whole entry, looked up): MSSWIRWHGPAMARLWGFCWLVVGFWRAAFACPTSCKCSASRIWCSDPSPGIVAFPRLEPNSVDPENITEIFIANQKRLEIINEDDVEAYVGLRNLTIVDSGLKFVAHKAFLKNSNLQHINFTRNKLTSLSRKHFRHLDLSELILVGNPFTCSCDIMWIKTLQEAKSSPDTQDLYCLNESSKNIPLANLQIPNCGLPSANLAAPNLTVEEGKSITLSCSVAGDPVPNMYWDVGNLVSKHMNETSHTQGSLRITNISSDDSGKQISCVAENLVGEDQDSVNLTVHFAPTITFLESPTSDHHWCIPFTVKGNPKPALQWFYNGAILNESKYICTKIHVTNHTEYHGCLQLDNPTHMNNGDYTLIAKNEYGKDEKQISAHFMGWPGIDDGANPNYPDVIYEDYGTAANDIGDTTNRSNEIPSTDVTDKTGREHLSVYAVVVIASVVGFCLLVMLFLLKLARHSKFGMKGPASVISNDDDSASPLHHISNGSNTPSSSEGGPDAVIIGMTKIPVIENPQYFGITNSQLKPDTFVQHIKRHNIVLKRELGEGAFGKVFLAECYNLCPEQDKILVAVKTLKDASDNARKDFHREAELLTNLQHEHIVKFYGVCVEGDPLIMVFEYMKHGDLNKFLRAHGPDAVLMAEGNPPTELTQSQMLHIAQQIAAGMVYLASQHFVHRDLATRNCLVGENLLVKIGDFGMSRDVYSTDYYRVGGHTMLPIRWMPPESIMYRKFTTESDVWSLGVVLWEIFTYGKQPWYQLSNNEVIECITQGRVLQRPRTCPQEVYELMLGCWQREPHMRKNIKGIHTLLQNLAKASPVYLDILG
Observed: enzyme activity
Mode: inhibitor
Concentration: 0.5 µM
Baseline: control
SMILES	remaining activity
COc1cc2ncnc(Nc3ccc(OCc4ccccc4)cc3)c2cc1OC	92.5%
CCC(=O)Nc1ccc2ncnc(Nc3cccc(Br)c3)c2c1	77.1%
O=C1NC(=O)/C(=C/c2ccc3nccnc3c2)S1	90.7%
CN(C)CCCn1cc(C2=C(c3c[nH]c4ccccc34)C(=O)NC2=O)c2ccccc21	55.8%
CC(C)[C@H](CO)Nc1nc(Nc2cccc(Cl)c2)c2ncn(C(C)C)c2n1	33.4%
CC(C)c1nn(-c2c(Cl)cccc2Cl)c2nc(Cc3ccc(OCCO)cc3)[nH]c(=O)c12	101%
CCOc1cc2ncnc(Nc3cccc(Br)c3)c2cc1OCC	105%
Cn1cnc2cc3c(Nc4cccc(Br)c4)ncnc3cc21	98.9%
O=c1cc(N2CCOCC2)oc2c1ccc1ccccc12	94%
COc1cc2ncnc(N3CCN(C(=O)Nc4ccc(Oc5ccccc5)cc4)CC3)c2cc1OC	121%
COc1ccc(Cl)cc1NC(=O)Nc1cc(C)nc2ccccc12	94.6%
CS(=O)(=O)CCNCc1ccc(-c2ccc3ncnc(Nc4ccc(OCc5cccc(F)c5)c(Cl)c4)c3c2)o1	98.8%
Cc1ccc(NC(=O)c2ccc(CN3CCN(C)CC3)cc2)cc1Nc1nccc(-c2cccnc2)n1	95.8%
CCN1/C(=C/C(C)=O)Sc2ccc(OC)cc21	104%
COc1cc2ncc(-c3ccccc3)nc2cc1OC	99.5%
O=C(Nc1ccc(Cl)cc1)c1ccccc1NCc1ccncc1	102%
Nc1[nH]nc2nnc(-c3c(-c4ccccc4)nn4ccccc34)cc12	89.7%
Cc1nc(Nc2ncc(C(=O)Nc3c(C)cccc3Cl)s2)cc(N2CCN(CCO)CC2)n1	96.4%
Cn1cc(/C=C2\C(=O)Nc3ccc(S(N)(=O)=O)cc32)c2ccccc21	4.83%

Sample 2
SMILES: CC(C)n1cnc(-c2ccc(F)cc2)c1-c1ncc(C(=O)Nc2ccc(N3CCN(C)CC3)cc2)[nH]1
Technique: phase 2a trial
Species: idiopathic pulmonary fibrosis patients
dose	setting	patients with nasopharyngitis [%]
60 mg once daily	grade 4 emergent event	0
30 mg once daily	grade 2 emergent event	0
all arms pooled	grade 4 emergent event	0
60 mg once daily	grade 2 emergent event	0
30 mg once daily	grade 3 emergent event	0
all arms pooled	grade 3 emergent event	0
60 mg once daily	grade 1 emergent event	0
all arms pooled	grade 5 emergent event	0
30 mg once daily	grade 5 emergent event	0
all arms pooled	grade 1 emergent event	0

Sample 3
Cell line: mouse MPNST tumor cells
Technique: high-content immunofluorescence imaging
Item: nuclear SOX9
Concentration: 10 µM
Time: 12 h
Setting: mean of 2 replicates
Baseline: DMSO control
Reading: higher = more nuclear SOX9
Structure (SMILES)	nuclear SOX9 intensity
Clc1ccc2c(c1)CCc1cccnc1C2=C1CCNCC1	207 % of DMSO
CC(C)(O)C(=O)N1CCN(c2ccc(C(F)(F)F)c(C3=C(c4c[nH]c5ccccc45)C(=O)NC3=O)c2)CC1	179 % of DMSO
CN1CCN(C(=O)c2cc3cc(Cl)ccc3[nH]2)CC1	125 % of DMSO
Oc1ccc(C2CNCCc3c2cc(O)c(O)c3Cl)cc1 (stereo not drawn)	91.2 % of DMSO
Nc1ccc(S(=O)(=O)Nc2nccs2)cc1	101 % of DMSO
C[C@@H](CN1CC(=O)NC(=O)C1)N1CC(=O)NC(=O)C1	107 % of DMSO
COC[C@H](C)Oc1cc(O[C@@H](C)Cc2ccccc2)cc(C(=O)Nc2ccc(C(=O)O)cn2)c1	132 % of DMSO
Cc1ccnc2c1NC(=O)c1cccnc1N2C1CC1	95.3 % of DMSO
O=c1c(-c2ccc(O)cc2)coc2cc(O)cc(O)c12	116 % of DMSO
Cn1c(=O)c2c(ncn2C)n(C)c1=O	93.4 % of DMSO and 118 % of DMSO

Sample 4
Structure (SMILES): CC(=O)N1CCC(c2ccc(C(=O)NC(=N)N)cc2C(F)(F)F)CC1
Observed: cell-free assay
Technique: competition with immobilised ligand
Concentration: 1 µM
target	remaining binding [%]
Serine/threonine-protein kinase D1 (PRKD1, Homo sapiens, UniProt Q15139)	100
Ephrin type-A receptor 3 (EPHA3, Homo sapiens, UniProt P29320)	100
Serine/threonine-protein kinase Nek1 (NEK1, Homo sapiens, UniProt Q96PY6)	100
Interleukin-1 receptor-associated kinase 4 (IRAK4, Homo sapiens, UniProt Q9NWZ3)	100
Activin receptor type-1 (ACVR1, Homo sapiens, UniProt Q04771)	100
Cyclin-dependent kinase 16 (CDK16, Homo sapiens, UniProt Q00536)	91
Serine/threonine-protein kinase PAK 6 (PAK6, Homo sapiens, UniProt Q9NQU5)	100
Serine/threonine-protein kinase PAK 3 (PAK3, Homo sapiens, UniProt O75914)	84
Phosphatidylinositol 4,5-bisphosphate 3-kinase catalytic subunit alpha isoform (PIK3CA, Homo sapiens, UniProt P42336, C420R)	100
Ribosomal protein S6 kinase alpha-1, C-terminal kinase domain (RPS6KA1, Homo sapiens, UniProt Q15418)	100
Serine/threonine-protein kinase tousled-like 1 (TLK1, Homo sapiens, UniProt Q9UKI8)	100
Mitogen-activated protein kinase 9 (MAPK9, Homo sapiens, UniProt P45984)	95
Epidermal growth factor receptor (EGFR, Homo sapiens, UniProt P00533)	100
Protein kinase C eta type (PRKCH, Homo sapiens, UniProt P24723)	100
Proto-oncogene tyrosine-protein kinase receptor Ret (RET, Homo sapiens, UniProt P07949)	100
Ephrin type-B receptor 4 (EPHB4, Homo sapiens, UniProt P54760)	100
Serine/threonine-protein kinase 25 (STK25, Homo sapiens, UniProt O00506)	100
Serine/threonine-protein kinase OSR1 (OXSR1, Homo sapiens, UniProt O95747)	100
Serine/threonine-protein kinase PAK 4 (PAK4, Homo sapiens, UniProt O96013)	100
Serine/threonine-protein kinase TAO2 (TAOK2, Homo sapiens, UniProt Q9UL54)	94
Serine/threonine-protein kinase ULK3 (ULK3, Homo sapiens, UniProt Q6PHR2)	80
Ribosomal protein S6 kinase beta-1 (RPS6KB1, Homo sapiens, UniProt P23443)	100
Mitogen-activated protein kinase 13 (MAPK13, Homo sapiens, UniProt O15264)	83
Testis-specific serine/threonine-protein kinase 3 (TSSK3, Homo sapiens, UniProt Q96PN8)	100

A few entries again (sample 4):
target	remaining binding [%]
Serine/threonine-protein kinase PAK 4 (PAK4, Homo sapiens, UniProt O96013)	100
Serine/threonine-protein kinase TAO2 (TAOK2, Homo sapiens, UniProt Q9UL54)	94
Serine/threonine-protein kinase ULK3 (ULK3, Homo sapiens, UniProt Q6PHR2)	80
Ribosomal protein S6 kinase beta-1 (RPS6KB1, Homo sapiens, UniProt P23443)	100
Mitogen-activated protein kinase 13 (MAPK13, Homo sapiens, UniProt O15264)	83
